# Results pooled from the literature.
# Each line is one published result; not all experiments were run side by side. Several values in a cell are separate wells, animals, samples, runs or records.
# Target: Phosphorylase b kinase gamma catalytic chain, skeletal muscle/heart isoform (PHKG1, Homo sapiens, UniProt Q16816)
Compound,observed,action,technique,concentration,reference,measurement,result
COc1cc(Nc2nc(C)cc(-c3cnn4nc(OC)ccc34)n2)cc(C(F)(F)F)c1,,inhibitor,,1 µM,control,remaining activity,85%
CNC(=O)C[C@H](Cc1ccc(C#N)cc1)NC(=O)c1cc(-c2ccc(CN[C@H](C)c3ccc(C)cc3)o2)ccc1Cl,enzyme activity,inhibitor,,1 µM,,activity vs control,81%
Nc1ncc(-c2cc(-c3cnn(CC(F)(F)F)c3)ncc2F)nc1C(=O)NC1CNCC(F)C1 (stereo not shown),enzyme activity,,,1 µM,DMSO control,remaining activity,82.4%
C=CC(=O)Nc1cccc(-c2cnc3[nH]cc(C(=O)NC(C)(C)C)c3n2)c1,kinase activity,,,0.1 µM,,inhibition,0% and -6%
CNC(=O)C1CCN(c2cc(C)c(F)cc2NC(=O)c2ccc(-c3cc(O)ccc3C)c(C)c2)CC1,binding,,competition with immobilised ligand,1 µM,,remaining binding,100%
Nc1ncc2c(n1)-c1c([nH]c3ccc(C4=CCOCC4)cc13)CCC2,binding,,competition with immobilised ligand,1 µM,,remaining binding,66%
CC(C)=CC1OC(C)(C)C2C=C3C(=O)C(Cl)=CC(O)C3C3C(O)C4OC4C(=O)C132 (stereo not shown),cell-free assay,,competition with immobilised ligand,10 µM,,remaining binding,97%
Cc1cccc(O[C@H]2CCC[C@@H](C(C)CNCc3ccncc3)C2)c1 (relative stereo),enzyme activity,inhibitor,,1 µM,,inhibition,6%
Cc1ccc(-c2c(/C=C(\C#N)C(=O)NC(C)C)n(CCCO)c3ncnc(N)c23)cc1,cell-free assay,,competition with immobilised ligand,1 µM,,remaining binding,97%
CN1CCN(Cc2ccc(-c3ccc(CO[C@H]4CCC[C@@H]4NC(=O)c4cc(-c5cnn(C)c5)cnc4N)cc3)cc2)CC1,enzyme activity,inhibitor,,0.1 µM,,inhibition,11%
COc1c(Cl)cccc1Nc1c(-c2ccncc2C#C[C@@]2(C)CCCN2C(=O)/C=C/CN(C)C)[nH]c2c1C(=O)NCC2,cell-free assay,,competition with immobilised ligand,3 µM,,remaining binding,95%
NC(=O)C[C@H]1CCc2sc3ncnc(O[C@H]4CC[C@H](N5CCOCC5)CC4)c3c21,enzyme activity,inhibitor,,10 µM,,inhibition,17%
O=C(Cc1ccc(OCc2ccccc2)cc1)NC1(C(=O)O)CCN(C(=O)c2ccc(-c3cccc(Cl)c3)cc2)CC1,enzyme activity,inhibitor,,10 µM,,activity vs control,127%

# A few entries again:
Compound,observed,action,technique,concentration,reference,measurement,result
CNC(=O)C1CCN(c2cc(C)c(F)cc2NC(=O)c2ccc(-c3cc(O)ccc3C)c(C)c2)CC1,binding,,competition with immobilised ligand,1 µM,,remaining binding,100%
Nc1ncc2c(n1)-c1c([nH]c3ccc(C4=CCOCC4)cc13)CCC2,binding,,competition with immobilised ligand,1 µM,,remaining binding,66%
